Measured values from different studies.
Lines come from different studies, so protocols differ. “And” joins repeats or separate records; there may be more than shown. ± marks the error that the study gave.
Chain of UniProt P21554 (whole entry, unmodified, looked up): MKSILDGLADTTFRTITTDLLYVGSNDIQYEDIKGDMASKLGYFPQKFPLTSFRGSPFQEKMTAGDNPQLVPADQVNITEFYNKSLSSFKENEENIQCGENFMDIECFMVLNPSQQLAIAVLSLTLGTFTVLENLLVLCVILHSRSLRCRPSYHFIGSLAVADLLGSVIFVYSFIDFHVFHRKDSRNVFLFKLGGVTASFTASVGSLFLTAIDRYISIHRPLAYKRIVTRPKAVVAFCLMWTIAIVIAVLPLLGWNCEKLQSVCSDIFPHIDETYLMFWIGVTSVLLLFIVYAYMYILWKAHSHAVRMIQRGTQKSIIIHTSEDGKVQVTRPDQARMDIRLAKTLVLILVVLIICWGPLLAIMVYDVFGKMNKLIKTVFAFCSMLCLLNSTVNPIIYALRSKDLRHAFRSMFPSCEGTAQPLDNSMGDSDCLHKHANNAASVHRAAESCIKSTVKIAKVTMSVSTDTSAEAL
Chain of UniProt Q9P0L9 (whole entry, unmodified, looked up): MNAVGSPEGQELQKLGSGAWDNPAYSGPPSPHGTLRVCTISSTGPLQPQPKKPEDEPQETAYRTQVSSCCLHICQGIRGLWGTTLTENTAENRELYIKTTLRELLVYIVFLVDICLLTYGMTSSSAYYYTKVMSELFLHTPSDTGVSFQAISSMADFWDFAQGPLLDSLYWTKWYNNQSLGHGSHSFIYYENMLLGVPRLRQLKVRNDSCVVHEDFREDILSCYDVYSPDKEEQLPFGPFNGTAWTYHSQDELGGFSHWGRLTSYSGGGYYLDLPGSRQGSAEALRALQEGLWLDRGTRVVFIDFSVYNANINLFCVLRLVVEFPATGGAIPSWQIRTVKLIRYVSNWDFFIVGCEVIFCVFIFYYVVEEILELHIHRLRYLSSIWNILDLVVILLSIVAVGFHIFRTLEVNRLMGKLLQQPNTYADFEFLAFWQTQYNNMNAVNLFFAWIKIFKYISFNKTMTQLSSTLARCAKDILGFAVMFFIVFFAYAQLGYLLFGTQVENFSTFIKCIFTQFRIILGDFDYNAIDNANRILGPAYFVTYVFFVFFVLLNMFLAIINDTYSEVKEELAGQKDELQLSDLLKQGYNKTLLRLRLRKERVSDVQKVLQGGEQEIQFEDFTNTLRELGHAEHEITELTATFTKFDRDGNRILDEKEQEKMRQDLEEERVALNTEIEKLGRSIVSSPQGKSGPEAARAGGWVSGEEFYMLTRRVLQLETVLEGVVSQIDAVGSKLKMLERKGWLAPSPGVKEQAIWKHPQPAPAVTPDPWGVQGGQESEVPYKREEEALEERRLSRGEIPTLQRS
Chain of UniProt P07339 (whole entry, looked up): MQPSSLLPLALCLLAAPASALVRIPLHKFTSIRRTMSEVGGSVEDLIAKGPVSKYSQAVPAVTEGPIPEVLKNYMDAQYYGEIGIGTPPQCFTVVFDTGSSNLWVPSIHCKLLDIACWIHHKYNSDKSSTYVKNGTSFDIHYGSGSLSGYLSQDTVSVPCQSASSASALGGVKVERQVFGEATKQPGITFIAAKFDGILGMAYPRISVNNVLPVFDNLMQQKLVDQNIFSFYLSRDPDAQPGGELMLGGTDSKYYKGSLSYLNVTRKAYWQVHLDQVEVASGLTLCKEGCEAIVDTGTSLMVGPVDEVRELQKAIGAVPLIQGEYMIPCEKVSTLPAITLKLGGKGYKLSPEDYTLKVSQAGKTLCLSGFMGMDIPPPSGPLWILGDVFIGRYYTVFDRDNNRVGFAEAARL
Chain of UniProt Q01959 (whole entry, unmodified, looked up): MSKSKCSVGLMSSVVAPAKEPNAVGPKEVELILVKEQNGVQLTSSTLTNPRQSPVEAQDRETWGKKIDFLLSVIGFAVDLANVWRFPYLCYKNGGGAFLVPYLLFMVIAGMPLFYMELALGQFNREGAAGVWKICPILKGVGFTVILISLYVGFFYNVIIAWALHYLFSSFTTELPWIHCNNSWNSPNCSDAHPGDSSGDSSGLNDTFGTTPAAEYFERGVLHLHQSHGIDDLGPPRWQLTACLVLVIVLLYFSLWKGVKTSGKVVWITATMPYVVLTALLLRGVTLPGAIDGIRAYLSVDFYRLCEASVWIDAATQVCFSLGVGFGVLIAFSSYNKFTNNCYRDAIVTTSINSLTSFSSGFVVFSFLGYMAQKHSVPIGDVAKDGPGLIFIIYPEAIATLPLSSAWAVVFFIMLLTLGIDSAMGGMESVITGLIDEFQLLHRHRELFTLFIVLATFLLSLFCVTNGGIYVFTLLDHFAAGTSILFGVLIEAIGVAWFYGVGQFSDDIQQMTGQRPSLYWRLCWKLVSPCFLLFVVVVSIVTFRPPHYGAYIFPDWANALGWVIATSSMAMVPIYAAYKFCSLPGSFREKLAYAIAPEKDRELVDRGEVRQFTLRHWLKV
Chain of UniProt P41143 (whole entry, unmodified, looked up): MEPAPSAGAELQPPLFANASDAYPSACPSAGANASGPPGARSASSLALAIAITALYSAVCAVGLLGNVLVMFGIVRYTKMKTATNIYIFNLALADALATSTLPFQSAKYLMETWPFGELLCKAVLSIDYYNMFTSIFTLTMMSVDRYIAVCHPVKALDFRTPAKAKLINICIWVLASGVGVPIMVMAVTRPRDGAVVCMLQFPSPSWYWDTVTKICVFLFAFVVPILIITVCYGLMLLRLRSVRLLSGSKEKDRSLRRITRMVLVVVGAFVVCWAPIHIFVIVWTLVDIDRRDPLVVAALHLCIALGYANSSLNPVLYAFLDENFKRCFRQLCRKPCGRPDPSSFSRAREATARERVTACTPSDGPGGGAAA
Chain of UniProt P23458 (whole entry, looked up): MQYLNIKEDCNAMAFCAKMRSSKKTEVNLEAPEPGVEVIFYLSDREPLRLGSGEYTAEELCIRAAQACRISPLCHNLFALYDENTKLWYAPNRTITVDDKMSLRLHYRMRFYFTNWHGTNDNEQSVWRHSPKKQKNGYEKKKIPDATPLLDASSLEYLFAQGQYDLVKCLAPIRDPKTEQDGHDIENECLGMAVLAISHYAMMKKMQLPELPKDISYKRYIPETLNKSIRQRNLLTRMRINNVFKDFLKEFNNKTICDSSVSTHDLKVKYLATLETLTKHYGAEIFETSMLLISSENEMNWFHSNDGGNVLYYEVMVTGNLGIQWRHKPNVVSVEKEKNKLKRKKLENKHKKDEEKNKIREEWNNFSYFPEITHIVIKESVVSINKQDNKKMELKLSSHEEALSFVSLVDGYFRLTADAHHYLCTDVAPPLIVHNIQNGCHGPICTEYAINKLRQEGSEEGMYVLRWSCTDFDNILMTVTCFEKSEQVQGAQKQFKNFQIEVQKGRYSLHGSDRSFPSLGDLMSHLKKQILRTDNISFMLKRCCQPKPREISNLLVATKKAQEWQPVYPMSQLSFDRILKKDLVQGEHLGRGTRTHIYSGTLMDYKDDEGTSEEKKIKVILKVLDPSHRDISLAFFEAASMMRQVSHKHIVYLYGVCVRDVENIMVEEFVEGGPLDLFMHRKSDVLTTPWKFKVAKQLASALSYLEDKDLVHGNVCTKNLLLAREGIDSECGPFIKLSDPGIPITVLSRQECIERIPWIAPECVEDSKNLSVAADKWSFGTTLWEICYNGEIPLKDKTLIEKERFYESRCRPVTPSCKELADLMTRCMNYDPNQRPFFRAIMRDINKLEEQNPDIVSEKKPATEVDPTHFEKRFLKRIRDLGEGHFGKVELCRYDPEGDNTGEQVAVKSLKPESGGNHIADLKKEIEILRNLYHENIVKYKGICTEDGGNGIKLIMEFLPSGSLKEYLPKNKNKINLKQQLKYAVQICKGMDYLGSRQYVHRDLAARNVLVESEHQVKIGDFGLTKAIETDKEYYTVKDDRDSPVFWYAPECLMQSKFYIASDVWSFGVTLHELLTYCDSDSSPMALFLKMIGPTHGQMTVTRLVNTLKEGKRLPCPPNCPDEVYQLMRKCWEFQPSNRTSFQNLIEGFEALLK
Chain of UniProt P25100 (whole entry, looked up): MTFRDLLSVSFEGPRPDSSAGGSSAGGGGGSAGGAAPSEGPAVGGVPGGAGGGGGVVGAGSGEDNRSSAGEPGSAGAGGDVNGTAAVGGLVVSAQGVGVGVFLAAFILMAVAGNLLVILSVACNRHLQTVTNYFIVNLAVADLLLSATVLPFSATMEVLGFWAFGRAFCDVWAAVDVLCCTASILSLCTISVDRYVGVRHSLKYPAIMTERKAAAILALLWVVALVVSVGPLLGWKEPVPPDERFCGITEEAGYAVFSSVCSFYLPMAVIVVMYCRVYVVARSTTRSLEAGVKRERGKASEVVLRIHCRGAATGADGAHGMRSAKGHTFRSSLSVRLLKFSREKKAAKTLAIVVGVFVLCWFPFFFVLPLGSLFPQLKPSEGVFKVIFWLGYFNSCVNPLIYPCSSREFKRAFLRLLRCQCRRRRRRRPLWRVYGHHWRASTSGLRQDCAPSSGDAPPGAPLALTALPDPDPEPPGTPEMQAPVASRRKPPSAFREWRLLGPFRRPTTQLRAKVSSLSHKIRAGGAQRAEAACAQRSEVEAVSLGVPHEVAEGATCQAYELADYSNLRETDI

CN(CCc1ccc(Cl)c(Cl)c1)CC(O)COc1ccc(NS(C)(=O)=O)cc1 (stereo not shown)  IC50 (PKD2L1 (Homo sapiens, UniProt Q9P0L9, F514A); ion current): 3800 nM
CCN(CC)C(=O)[C@@H]1C=C2c3cccc4c3c(cn4C(=O)c3ccco3)C[C@H]2N(C)C1  Ki (Alpha-1D adrenergic receptor (ADRA1D, Homo sapiens, UniProt P25100); ligand displacement, radioligand): > 10000 nM
Cc1ccc2c(C(C[N+](=O)[O-])c3cccs3)c(-c3ccccc3)[nH]c2c1 (stereo not shown)  EC50 (Cannabinoid receptor 1 (CNR1, Homo sapiens, UniProt P21554, I245A); β-arrestin recruitment, agonist, luciferase): 380 nM
C[C@]12CC[C@H](OC(=O)C3CC3)[C@@](C)(COC(=O)C3CC3)C1C[C@H](O)[C@@]1(C)Oc3cc(-c4cccnc4)oc(=O)c3[C@H](O)C21 (stereo partly shown)  Ki (Halyomorpha halys; radioligand competition binding; Nan-Iav, added: [3H]-afidopyropen): 0.00997 nM
COc1ccccc1C(C[N+](=O)[O-])c1c(-c2ccccc2)[nH]c2ccccc12 (stereo not shown)  EC50 (Cannabinoid receptor 1 (CNR1, Homo sapiens, UniProt P21554, P394A); G protein activation, agonist, BRET): 360 nM
Cc1ccc(OCCN(C)C)cc1C(=O)N[C@H](C)c1cc(-c2cccnc2N2CCCC2)nc2ccccc12  viability (Vero E6; 250 µM): 0% and -0.228%
COc1ccccc1-c1n[nH]c2nc(N[C@H]3CC[C@H](NS(=O)(=O)CC(C)C)CC3)ncc12  relative abundance (bead binding, competition bead pull-down, item: LINJ.35.3280; Leishmania donovani extract; 10 µM; reference: vehicle): 0.84
CCn1cc(-c2cc([C@@H](C)NC(=O)c3cc(OCCN(C)C)ccc3C)c3ccccc3n2)c(C(F)(F)F)n1  viability (Vero E6; 31.25 µM): 8.46% and 2.31%
C=CC(=O)Nc1ccc(F)c(-c2ncnc3[nH]cc(C(=O)OCC)c23)c1  IC50 (Tyrosine-protein kinase JAK1 (JAK1, Homo sapiens, UniProt P23458); inhibitor, kinase; added: ATP 100 µM): 1520 nM
CCC[C@H](C(=O)c1ccccc1)N1CCCC1  Ki (Sodium-dependent dopamine transporter (SLC6A3, Homo sapiens, UniProt Q01959, S149A/S429G); transporter uptake, inhibitor, radiometric): 579 nM
CC(C)CC(C(=O)N1CC2(CC1C#N)C(=O)Nc1ccccc12)N(C)C(=O)c1cc2c(F)cc(F)c(F)c2[nH]1 (stereo not shown)  IC50 (Cathepsin D (CTSD, Homo sapiens, UniProt P07339); enzyme activity, inhibitor): > 100000 nM
O=C1NC2(CC2)COc2ncc(F)cc2[C@H]2COCCN2c2ccn3ncc1c3n2  organ weight (Sprague-Dawley rat, male, testes; oral, 5 mg/kg/day, 4 weeks): 3.25 ± 0.16 g
CCN(CC)C(=O)c1ccc(C(c2cccc(O)c2)N2CC(C)N(Cc3ccccc3)CC2C)cc1 (stereo not shown)  Ki (Delta-type opioid receptor (OPRD1, Homo sapiens, UniProt P41143, E323K)): 0.32 ± 0.09 nM

A few entries again:
C=CC(=O)Nc1ccc(F)c(-c2ncnc3[nH]cc(C(=O)OCC)c23)c1  IC50 (Tyrosine-protein kinase JAK1 (JAK1, Homo sapiens, UniProt P23458); inhibitor, kinase; added: ATP 100 µM): 1520 nM
